{"data": "Published values pooled from the literature", "note": "Each line is one published result; not all experiments were run side by side. “And” joins repeats or separate records; there may be more than shown. Numbers after ± are the reported error."}
{"SMILES": "CC(=O)c1cc(-c2ccsc2)ccc1OCCc1cccc(F)c1", "cell line": "HepG2", "setting": "3 (unit not given)", "scale": "baseline: CC50 glucose over CC50 galactose", "quantity": "selectivity ratio", "value": "> 3 and ~3"}
{"SMILES": "c1ccc2c(c1)Sc1ccccc1N2CC1CN2CCC1CC2 (stereo not shown)", "cell line": "African green monkey cells", "setting": "5 days", "quantity": "CC50", "value": "7.76 µM"}
{"SMILES": "Nc1nc2c(ncn2[C@@H]2O[C@@H]3COP(=O)(O)O[C@H]4[C@@H](O)[C@H](n5cnc6c(N)ncnc65)O[C@@H]4COP(=O)(O)O[C@H]3[C@H]2O)c(=O)[nH]1", "cell line": "HFF-1", "setting": "100 µg/mL", "quantity": "viability", "value": "85.1%"}
{"SMILES": "O=c1ccc2ccccc2o1", "cell line": "NHEK", "test": "cell count", "setting": "concentration not given, 24 h, apoptosis, necrosis, cell cycle panel", "quantity": "chance response", "value": "0.02%"}
{"SMILES": "C=CC(=O)Nc1cc(Nc2nccc(-c3cn(C)c4ccccc34)n2)c(OC)cc1N(C)CCN(C)C", "cell line": "African green monkey cells", "setting": "5 days", "quantity": "CC50", "value": "3.09 µM"}
{"SMILES": "CC(=O)N[C@@H](CCCCN)C(=O)N[C@@H](CC(C)C)C(=O)N[C@@H](CC(C)C)C(=O)N[C@@H](CCCCN)C(=O)N[C@@H](CC(C)C)C(=O)N[C@@H](CC(C)C)C(=O)N[C@@H](CCCCN)C(=O)N[C@@H](CCCCN)C(=O)N1CCC[C@H]1C(=O)N[C@@H](CC(C)C)C(=O)N[C@@H](CCCCN)C(=O)N[C@@H](CC(C)C)C(=O)N[C@@H](CC(C)C)C(=O)N[C@@H](CCCCN)C(=O)N[C@@H](CCCCN)C(=O)N[C@@H](CC(C)C)C(N)=O", "cell line": "human red blood cells", "test": "haemolysis", "setting": "6 h, 37 °C, 5% haematocrit in PBS", "quantity": "MHC10", "value": "> 160 µM"}
{"SMILES": "CC(C)Cn1cnc2c(N)nc3ccccc3c21", "cell line": "HFF-1", "setting": "1 µg/mL, 48 h", "quantity": "viability", "value": "82.3%"}
{"SMILES": "CCN(CC)CCNC(=O)c1cc(Cl)c(NC(=O)COc2ccc(Cl)cc2)cc1OC", "cell line": "African green monkey cells", "setting": "5 days", "quantity": "CC50", "value": "2.85 µM"}
{"SMILES": "Cn1c(N)nc2c3cccnc3ccc21", "cell line": "rat hepatoma cells", "test": "cell confluency, IncuCyte imaging", "setting": "24 h, nominal concentration", "quantity": "IC10", "value": "> 217 µM"}
{"SMILES": "Oc1ccc(C2(c3ccc(O)cc3)c3ccccc3-c3ccccc32)cc1", "cell line": "HepG2 spheroids", "test": "annexin V-FITC/PI flow cytometry", "setting": "0.10 µM, 96 h", "quantity": "late apoptotic cells", "value": "28.6 ± 6.73%"}
{"SMILES": "CC(=O)N[C@@H](C)C(=O)N[C@@H](CCCCN)C(=O)N[C@@H](CC(C)C)C(=O)N[C@@H](CC(C)C)C(=O)N[C@@H](CCCCN)C(=O)N[C@@H](CC(C)C)C(=O)N[C@@H](CC(C)C)C(=O)N[C@@H](CCCCN)C(=O)N[C@@H](CCCCN)C(=O)N1CCC[C@H]1C(=O)N[C@@H](CC(C)C)C(=O)N[C@@H](CCCCN)C(=O)N[C@@H](CC(C)C)C(=O)N[C@@H](CC(C)C)C(=O)N[C@@H](CCCCN)C(N)=O", "cell line": "human red blood cells", "test": "haemolysis", "setting": "6 h, 37 °C, 5% haematocrit in PBS", "quantity": "MHC10", "value": "> 160 µM"}
{"SMILES": "Cc1c(-c2ccc(O)cc2)n(Cc2ccc(OCCN3CCCCC3)cc2)c2ccc(O)cc12", "cell line": "African green monkey cells", "setting": "5 days", "quantity": "CC50", "value": "4.62 µM"}
{"SMILES": "Nc1nc2c(ncn2[C@@H]2O[C@@H]3COP(=O)(O)O[C@H]4[C@@H](O)[C@H](n5cnc6c(=O)[nH]c(N)nc65)O[C@@H]4COP(=O)(O)O[C@H]3[C@H]2O)c(=O)[nH]1", "cell line": "HFF-1", "setting": "0.1 µg/mL", "quantity": "viability", "value": "90.1%"}
{"SMILES": "O=S(=O)(c1ccc(O)cc1)c1ccc(O)cc1", "cell line": "HepG2 spheroids, dissociated", "test": "annexin V-FITC/PI flow cytometry", "setting": "0.01 µM, 96 h", "quantity": "early apoptotic cells", "value": "7.15 ± 6.97%"}
{"SMILES": "OC(CNCC(O)C1CCc2cc(F)ccc2O1)C1CCc2cc(F)ccc2O1 (stereo not shown)", "cell line": "African green monkey cells", "setting": "5 days", "quantity": "CC50", "value": "8.71 µM"}
{"SMILES": "Cc1cc(C(C)(C)c2ccc(O)c(C)c2)ccc1O", "cell line": "HepG2 spheroids, dissociated", "test": "annexin V-FITC/PI flow cytometry", "setting": "10 µM, 96 h", "quantity": "late apoptotic cells", "value": "31.5 ± 3.37%"}
{"SMILES": "c1ccc(C(O[C@@H]2CCCN(CCc3ccc4c(c3)OCO4)C2)c2ccccc2)cc1", "cell line": "African green monkey cells", "setting": "5 days", "quantity": "CC50", "value": "> 100 µM"}
{"SMILES": "CN(CCC=C1c2ccccc2CCc2ccccc21)N=O", "cell line": "TK6 expressing CYP2C19", "setting": "0.062 µM, 4 h, without S9", "scale": "baseline: vehicle", "quantity": "relative survival", "value": "69.7%"}
{"SMILES": "CC(C)C[C@H](NC(=O)[C@H](CCCCN)NC(=O)[C@H](CC(C)C)NC(=O)[C@H](CC(C)C)NC(=O)[C@H](CCCCN)NC(=O)CNC(=O)[C@H](CC(C)C)NC(=O)CNC(=O)[C@H](CCCCN)NC(=O)[C@H](CC(C)C)NC(=O)[C@H](CC(C)C)NC(=O)[C@H](CCCCN)NC(=O)[C@@H](N)CC(C)C)C(=O)O", "cell line": "HEK-293T cells", "test": "CCK-8", "setting": "4 h, 37 °C, 10% cell death", "quantity": "lowest cytotoxic concentration", "value": "> 256 µg/mL"}
{"note": "Repeated from above:"}
{"SMILES": "CC(=O)N[C@@H](C)C(=O)N[C@@H](CCCCN)C(=O)N[C@@H](CC(C)C)C(=O)N[C@@H](CC(C)C)C(=O)N[C@@H](CCCCN)C(=O)N[C@@H](CC(C)C)C(=O)N[C@@H](CC(C)C)C(=O)N[C@@H](CCCCN)C(=O)N[C@@H](CCCCN)C(=O)N1CCC[C@H]1C(=O)N[C@@H](CC(C)C)C(=O)N[C@@H](CCCCN)C(=O)N[C@@H](CC(C)C)C(=O)N[C@@H](CC(C)C)C(=O)N[C@@H](CCCCN)C(N)=O", "cell line": "human red blood cells", "test": "haemolysis", "setting": "6 h, 37 °C, 5% haematocrit in PBS", "quantity": "MHC10", "value": "> 160 µM"}
{"SMILES": "Cc1c(-c2ccc(O)cc2)n(Cc2ccc(OCCN3CCCCC3)cc2)c2ccc(O)cc12", "cell line": "African green monkey cells", "setting": "5 days", "quantity": "CC50", "value": "4.62 µM"}
